Published values of several laboratories.
Numbered parts are unrelated; each lists some results of a single study.
UniProt O00141, sequence (whole entry, looked up): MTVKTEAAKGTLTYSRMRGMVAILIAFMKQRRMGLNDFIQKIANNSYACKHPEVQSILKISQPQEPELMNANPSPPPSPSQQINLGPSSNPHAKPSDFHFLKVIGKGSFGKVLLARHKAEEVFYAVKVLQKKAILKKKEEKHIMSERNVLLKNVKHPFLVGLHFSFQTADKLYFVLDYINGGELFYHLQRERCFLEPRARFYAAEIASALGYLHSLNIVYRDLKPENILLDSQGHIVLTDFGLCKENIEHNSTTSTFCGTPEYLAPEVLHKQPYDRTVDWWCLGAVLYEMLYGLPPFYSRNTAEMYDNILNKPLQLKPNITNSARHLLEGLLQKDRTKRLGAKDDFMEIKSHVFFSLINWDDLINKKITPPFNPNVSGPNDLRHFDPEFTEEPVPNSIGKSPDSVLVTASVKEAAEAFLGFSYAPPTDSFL
UniProt Q13177, sequence (whole entry, looked up): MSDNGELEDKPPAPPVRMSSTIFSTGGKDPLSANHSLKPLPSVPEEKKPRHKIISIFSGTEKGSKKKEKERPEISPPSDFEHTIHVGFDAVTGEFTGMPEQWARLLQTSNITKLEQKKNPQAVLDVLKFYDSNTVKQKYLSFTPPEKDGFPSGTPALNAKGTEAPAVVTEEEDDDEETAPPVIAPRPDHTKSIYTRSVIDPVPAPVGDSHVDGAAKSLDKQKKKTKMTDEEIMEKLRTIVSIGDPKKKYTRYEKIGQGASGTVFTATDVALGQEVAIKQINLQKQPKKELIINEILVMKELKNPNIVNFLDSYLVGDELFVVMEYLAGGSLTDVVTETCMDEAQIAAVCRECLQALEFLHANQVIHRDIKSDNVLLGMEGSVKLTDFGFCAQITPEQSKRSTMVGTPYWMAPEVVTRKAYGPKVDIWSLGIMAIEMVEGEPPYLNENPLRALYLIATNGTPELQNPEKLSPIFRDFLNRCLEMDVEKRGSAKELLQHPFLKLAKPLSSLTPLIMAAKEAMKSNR
UniProt P42336, sequence (whole entry, unmodified, looked up): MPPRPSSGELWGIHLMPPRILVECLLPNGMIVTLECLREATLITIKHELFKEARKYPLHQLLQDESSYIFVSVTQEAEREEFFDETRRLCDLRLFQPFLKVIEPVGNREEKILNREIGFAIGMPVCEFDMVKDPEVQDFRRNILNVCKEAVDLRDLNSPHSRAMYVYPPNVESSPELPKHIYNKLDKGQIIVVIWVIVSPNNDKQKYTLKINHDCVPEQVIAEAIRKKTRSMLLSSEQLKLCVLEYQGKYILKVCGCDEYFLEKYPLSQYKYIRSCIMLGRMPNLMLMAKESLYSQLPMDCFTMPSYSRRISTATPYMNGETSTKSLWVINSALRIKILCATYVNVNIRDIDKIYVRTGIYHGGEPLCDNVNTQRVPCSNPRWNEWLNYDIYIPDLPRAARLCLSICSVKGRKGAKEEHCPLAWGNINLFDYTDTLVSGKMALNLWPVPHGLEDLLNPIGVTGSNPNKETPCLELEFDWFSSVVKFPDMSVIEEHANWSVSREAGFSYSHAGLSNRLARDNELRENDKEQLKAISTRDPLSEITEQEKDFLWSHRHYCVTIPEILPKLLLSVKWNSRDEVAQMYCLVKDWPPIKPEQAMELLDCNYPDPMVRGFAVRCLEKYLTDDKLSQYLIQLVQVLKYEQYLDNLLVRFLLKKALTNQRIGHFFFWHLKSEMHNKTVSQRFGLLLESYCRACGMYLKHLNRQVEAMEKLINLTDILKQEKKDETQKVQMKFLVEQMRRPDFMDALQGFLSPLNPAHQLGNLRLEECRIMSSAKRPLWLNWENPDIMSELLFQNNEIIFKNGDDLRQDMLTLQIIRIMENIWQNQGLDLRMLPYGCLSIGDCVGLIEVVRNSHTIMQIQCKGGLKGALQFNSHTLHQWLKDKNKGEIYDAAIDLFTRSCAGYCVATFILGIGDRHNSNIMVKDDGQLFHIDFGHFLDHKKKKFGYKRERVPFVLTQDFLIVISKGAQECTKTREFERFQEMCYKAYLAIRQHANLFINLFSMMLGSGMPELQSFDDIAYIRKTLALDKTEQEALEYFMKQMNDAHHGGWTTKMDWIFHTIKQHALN
UniProt Q8NEB9, sequence (whole entry, looked up): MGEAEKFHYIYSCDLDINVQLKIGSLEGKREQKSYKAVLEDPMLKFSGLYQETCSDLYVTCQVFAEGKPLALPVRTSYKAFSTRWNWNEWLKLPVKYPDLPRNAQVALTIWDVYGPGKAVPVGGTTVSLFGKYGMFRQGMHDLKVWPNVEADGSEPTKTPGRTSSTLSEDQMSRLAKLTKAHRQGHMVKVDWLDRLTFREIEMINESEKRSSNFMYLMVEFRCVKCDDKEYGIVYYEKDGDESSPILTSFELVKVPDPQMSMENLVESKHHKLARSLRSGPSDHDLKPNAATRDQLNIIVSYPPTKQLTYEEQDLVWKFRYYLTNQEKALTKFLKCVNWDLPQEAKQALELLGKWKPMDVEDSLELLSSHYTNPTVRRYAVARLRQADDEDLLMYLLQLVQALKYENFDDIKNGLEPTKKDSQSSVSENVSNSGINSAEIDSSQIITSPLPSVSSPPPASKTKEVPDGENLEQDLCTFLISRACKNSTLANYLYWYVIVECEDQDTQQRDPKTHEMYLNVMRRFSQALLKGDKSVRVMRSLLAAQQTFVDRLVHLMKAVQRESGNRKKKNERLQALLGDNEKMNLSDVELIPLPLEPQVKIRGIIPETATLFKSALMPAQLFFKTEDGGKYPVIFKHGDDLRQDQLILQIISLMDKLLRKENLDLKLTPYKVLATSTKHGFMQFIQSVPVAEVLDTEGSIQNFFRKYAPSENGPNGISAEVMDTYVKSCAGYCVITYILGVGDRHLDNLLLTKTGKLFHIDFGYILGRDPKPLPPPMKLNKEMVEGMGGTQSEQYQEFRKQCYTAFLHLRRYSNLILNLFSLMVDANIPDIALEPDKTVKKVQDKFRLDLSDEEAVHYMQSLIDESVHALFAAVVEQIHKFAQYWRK
UniProt Q56UN5, sequence (whole entry, looked up): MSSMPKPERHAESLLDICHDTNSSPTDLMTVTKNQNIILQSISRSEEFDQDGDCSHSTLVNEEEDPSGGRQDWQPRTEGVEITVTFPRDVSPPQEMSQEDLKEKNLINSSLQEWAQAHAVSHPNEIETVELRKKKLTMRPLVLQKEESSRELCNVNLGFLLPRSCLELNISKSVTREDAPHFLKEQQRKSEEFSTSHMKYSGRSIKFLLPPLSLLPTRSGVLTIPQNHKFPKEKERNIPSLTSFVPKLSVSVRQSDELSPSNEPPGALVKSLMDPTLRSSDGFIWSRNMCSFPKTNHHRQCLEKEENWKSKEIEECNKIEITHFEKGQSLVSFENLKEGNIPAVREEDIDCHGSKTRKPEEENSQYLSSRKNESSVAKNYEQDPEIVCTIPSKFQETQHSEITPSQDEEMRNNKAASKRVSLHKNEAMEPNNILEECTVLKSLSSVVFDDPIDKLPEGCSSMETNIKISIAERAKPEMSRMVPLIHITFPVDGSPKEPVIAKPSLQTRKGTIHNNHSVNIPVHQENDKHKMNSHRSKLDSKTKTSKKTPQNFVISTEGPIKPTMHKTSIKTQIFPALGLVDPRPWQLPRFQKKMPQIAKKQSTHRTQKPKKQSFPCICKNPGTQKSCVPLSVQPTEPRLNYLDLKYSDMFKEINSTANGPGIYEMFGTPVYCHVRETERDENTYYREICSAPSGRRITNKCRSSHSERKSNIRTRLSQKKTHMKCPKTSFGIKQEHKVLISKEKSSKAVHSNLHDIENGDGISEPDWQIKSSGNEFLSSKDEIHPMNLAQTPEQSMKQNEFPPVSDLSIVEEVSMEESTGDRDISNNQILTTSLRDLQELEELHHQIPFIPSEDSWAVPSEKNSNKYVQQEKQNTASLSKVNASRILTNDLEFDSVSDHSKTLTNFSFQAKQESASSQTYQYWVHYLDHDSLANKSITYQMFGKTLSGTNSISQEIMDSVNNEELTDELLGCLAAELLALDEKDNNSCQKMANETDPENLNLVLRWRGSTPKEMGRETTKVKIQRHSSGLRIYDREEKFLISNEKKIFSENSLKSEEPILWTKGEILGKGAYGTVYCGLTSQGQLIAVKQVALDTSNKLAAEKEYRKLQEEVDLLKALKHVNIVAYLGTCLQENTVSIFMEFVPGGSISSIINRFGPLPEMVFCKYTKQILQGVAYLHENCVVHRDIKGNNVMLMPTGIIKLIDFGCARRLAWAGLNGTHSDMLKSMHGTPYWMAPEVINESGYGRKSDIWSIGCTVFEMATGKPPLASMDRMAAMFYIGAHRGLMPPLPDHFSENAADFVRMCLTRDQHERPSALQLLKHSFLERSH
UniProt P78356, sequence (whole entry, looked up): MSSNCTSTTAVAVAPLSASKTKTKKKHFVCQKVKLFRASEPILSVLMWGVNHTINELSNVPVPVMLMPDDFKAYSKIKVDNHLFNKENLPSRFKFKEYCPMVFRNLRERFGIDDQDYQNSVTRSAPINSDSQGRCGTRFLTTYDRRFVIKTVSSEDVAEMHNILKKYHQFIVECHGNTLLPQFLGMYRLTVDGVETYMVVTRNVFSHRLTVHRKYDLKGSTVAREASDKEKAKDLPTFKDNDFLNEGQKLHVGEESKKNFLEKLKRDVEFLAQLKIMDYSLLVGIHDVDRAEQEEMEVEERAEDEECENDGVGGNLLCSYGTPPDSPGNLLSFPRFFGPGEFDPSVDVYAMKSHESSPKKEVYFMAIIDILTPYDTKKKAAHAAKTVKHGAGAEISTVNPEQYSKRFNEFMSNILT
UniProt P19784, sequence (whole entry, looked up): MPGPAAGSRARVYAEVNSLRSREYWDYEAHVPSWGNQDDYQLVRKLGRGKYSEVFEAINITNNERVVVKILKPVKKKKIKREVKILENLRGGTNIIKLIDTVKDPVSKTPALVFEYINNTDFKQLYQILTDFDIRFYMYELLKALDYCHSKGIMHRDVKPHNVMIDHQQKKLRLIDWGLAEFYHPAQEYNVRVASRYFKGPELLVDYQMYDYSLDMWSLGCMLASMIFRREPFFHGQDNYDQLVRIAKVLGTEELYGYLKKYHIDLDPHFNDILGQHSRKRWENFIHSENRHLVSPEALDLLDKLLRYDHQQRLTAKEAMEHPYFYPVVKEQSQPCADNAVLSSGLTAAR

Sample 1 — Structure (SMILES): Ic1cccc(CSc2nnc(-c3ccncc3)o2)c1; observed: enzyme activity; mode: inhibitor; tested at: 0.5 µM; reference: control; quantity: remaining activity
G protein-coupled receptor kinase 6 (GRK6, Homo sapiens, UniProt P43250): 100%
Cytoplasmic tyrosine-protein kinase BMX (BMX, Homo sapiens, UniProt P51813): 86.6%
Serine/threonine-protein kinase PAK 2 (PAK2, Homo sapiens, UniProt Q13177): 97.6%
SRSF protein kinase 3 (SRPK3, Homo sapiens, UniProt Q9UPE1): 101%
Glycogen synthase kinase-3 alpha (GSK3A, Homo sapiens, UniProt P49840): 42.7%
Serine/threonine-protein kinase Sgk1 (SGK1, Homo sapiens, UniProt O00141): 99%
Ribosomal protein S6 kinase alpha-1 (RPS6KA1, Homo sapiens, UniProt Q15418): 98.6%

Sample 2 — observed: cell-free assay; method: competition with immobilised ligand; tested at: 0.1 µM; quantity: remaining binding
Compound: CCOC(=O)c1cc2cc(-c3cc(C(=O)NCc4ccc(C(=O)O)cc4)nn3C)ccc2[nH]1
Phosphatidylinositol 4,5-bisphosphate 3-kinase catalytic subunit alpha isoform (PIK3CA, Homo sapiens, UniProt P42336, Q546K): 95%
Glycogen synthase kinase-3 beta (GSK3B, Homo sapiens, UniProt P49841): 95%
Dual specificity tyrosine-phosphorylation-regulated kinase 2 (DYRK2, Homo sapiens, UniProt Q92630): 76%
Mitogen-activated protein kinase 8 (MAPK8, Homo sapiens, UniProt P45983): 96%
Ephrin type-A receptor 1 (EPHA1, Homo sapiens, UniProt P21709): 100%
Serine/threonine-protein kinase DCLK1 (DCLK1, Homo sapiens, UniProt O15075): 86%
Tyrosine-protein kinase SYK (SYK, Homo sapiens, UniProt P43405): 100%
Ribosomal protein S6 kinase alpha-6, C-terminal kinase domain (RPS6KA6, Homo sapiens, UniProt Q9UK32): 93%
Tyrosine-protein kinase FRK (FRK, Homo sapiens, UniProt P42685): 100%
Mitogen-activated protein kinase kinase kinase 19 (MAP3K19, Homo sapiens, UniProt Q56UN5): 75%
Phosphatidylinositol 5-phosphate 4-kinase type-2 beta (PIP4K2B, Homo sapiens, UniProt P78356): 100%
Serine/threonine-protein kinase B-raf (BRAF, Homo sapiens, UniProt P15056): 91%
Tyrosine-protein kinase Tec (TEC, Homo sapiens, UniProt P42680): 99%
Serine/threonine-protein kinase DCLK3 (DCLK3, Homo sapiens, UniProt Q9C098): 73%
Cyclin-dependent kinase 2 (CDK2, Homo sapiens, UniProt P24941): 90%
Serine/threonine-protein kinase MARK1 (MARK1, Homo sapiens, UniProt Q9P0L2): 76%
Casein kinase II subunit alpha' (CSNK2A2, Homo sapiens, UniProt P19784): 87%
Tyrosine-protein kinase ABL1, phosphorylated (ABL1, Homo sapiens, UniProt P00519, M351T): 90%
Receptor-type tyrosine-protein kinase FLT3 (FLT3, Homo sapiens, UniProt P36888, D835Y): 92%
Death-associated protein kinase 3 (DAPK3, Homo sapiens, UniProt O43293): 98%
Phosphatidylinositol 3-kinase catalytic subunit type 3 (PIK3C3, Homo sapiens, UniProt Q8NEB9): 80%
Receptor-type tyrosine-protein kinase FLT3 (FLT3, Homo sapiens, UniProt P36888, N841I): 81%
BDNF/NT-3 growth factors receptor (NTRK2, Homo sapiens, UniProt Q16620): 91%
Cyclin-dependent kinase 17 (CDK17, Homo sapiens, UniProt Q00537): 100%
Serine/threonine-protein kinase TAO1 (TAOK1, Homo sapiens, UniProt Q7L7X3): 90%

Sample 3 — cell line: Huh-7; tested at: 10 µM; time: 24 h; quantity: viability
CC(=O)N[C@@H](CS)C(=O)O: 101%
N[C@@H](Cc1ccc(O)c(O)c1)C(=O)O: 100%
CNCCc1ccccn1: 104%
CC(=O)OCC(=O)[C@@]1(O)CC[C@H]2[C@@H]3CCC4=CC(=O)CC[C@]4(C)[C@H]3C(=O)C[C@@]21C: 92%
O=C(c1ccc(OCCN2CCCCC2)cc1)c1c(-c2ccc(O)cc2)sc2cc(O)ccc12: 100%
CC1(C)O[C@@H]2C[C@H]3[C@@H]4CCC5=CC(=O)CC[C@]5(C)[C@@]4(F)[C@@H](O)C[C@]3(C)[C@]2(C(=O)CCl)O1: 99.7%
CN1CCOC(c2ccccc2)c2ccccc2C1 (stereo not drawn): 99.8%
CCN(CC)Cc1cc(Nc2ccnc3cc(Cl)ccc23)ccc1O: 95.3%
C[C@@H]1[C@H](O)[C@@H](C)/C=C/C=C/C=C/C=C/C=C/C=C/C=C/[C@H](O[C@@H]2O[C@H](C)[C@@H](O)[C@H](N)[C@@H]2O)C[C@@H]2O[C@](O)(C[C@@H](O)C[C@@H](O)[C@H](O)CC[C@@H](O)C[C@@H](O)CC(=O)O[C@H]1C)C[C@H](O)[C@H]2C(=O)O: 70.2%

Sample 4 — medium: plasma; route: oral; quantity: plasma concentration, geometric mean
Structure (SMILES): COc1ccc(-c2c(Nc3ccccn3)[nH]c3c(C4=CCCCC4)c(-c4ccccc4)nn3c2=O)cc1
LC-MS/MS; human; 50 mg once daily, 2 h, cycle 1: 1300 ng/mL
cancer patients; 200 mg, 72 h post-dose, single dose: 280 ng/mL
cancer patients; 200 mg, 2 h post-dose, single dose: 709 ng/mL
human patients; 200 mg once daily, 0 h, cycle 1: 4060 ng/mL
human patients; 150 mg once daily, 3 h, cycle 1: 4670 ng/mL
cancer patients; 400 mg, 0.5 h post-dose, single dose: 80.7 ng/mL
LC-MS/MS; human; 50 mg once daily, 3 h, cycle 1: 1570 ng/mL
human patients; 100 mg once daily, 0.5 h, cycle 1: 2490 ng/mL
human patients; 150 mg once daily, 4 h, cycle 1: 4430 ng/mL
cancer patients; 200 mg, 24 h post-dose, single dose: 877 ng/mL
